Published values from different studies.
Lines come from different studies, so protocols differ. Values joined by “and” are separate records of one study, mostly repeats; a detail may differ. ± marks the error that the study gave.

SMILES	target or system	test	test system	setting	scale	endpoint	result
CCCCCCCCCCCCCCCC(=O)N[C@@H](CCC(=O)NCCOCCOCCC(=O)NCCOCCOCCC(=O)NCCCC[C@H](NC(=O)[C@H](CC(=O)O)NC(=O)[C@H](CC(C)C)NC(=O)[C@H](Cc1ccc(O)cc1)NC(=O)[C@H](CCCCN)NC(=O)[C@H](CO)NC(=O)[C@H](Cc1ccc(O)cc1)NC(=O)[C@H](CC(=O)O)NC(=O)[C@H](CO)NC(=O)[C@@H](NC(=O)[C@H](Cc1ccccc1)NC(=O)[C@@H](NC(=O)CNC(=O)[C@H](CCC(N)=O)NC(=O)[C@@H](CO)NC(=O)[C@@H](N)Cc1c[nH]cn1)[C@@H](C)O)[C@@H](C)O)C(=O)N[C@@H](CCCNC(=N)N)C(=O)N[C@@H](CCCNC(=N)N)C(=O)N[C@@H](C)C(=O)N[C@@H](CCC(N)=O)C(=O)N[C@@H](CC(=O)O)C(=O)N[C@@H](Cc1ccccc1)C(=O)N[C@H](C(=O)N[C@@H](CCC(N)=O)C(=O)N[C@@H](Cc1c[nH]c2ccccc12)C(=O)N[C@@H](CC(C)C)C(=O)N[C@@H](CC(C)C)C(=O)N[C@@H](CC(N)=O)C(=O)N[C@H](C(=O)NCC(=O)NCC(=O)N1CCC[C@H]1C(=O)N[C@@H](CO)C(=O)N[C@@H](CO)C(=O)NCC(=O)N[C@@H](C)C(=O)N1CCC[C@H]1C(=O)N1CCC[C@H]1C(=O)N1CCC[C@H]1C(=O)N[C@@H](CO)C(N)=O)[C@@H](C)O)C(C)C)C(=O)O	–	–	rhesus monkey, female	subcutaneous, 60 µg/kg, day 1, median	–	Tmax	2 h
CC(=O)NCCCC[C@@H]1NC(=O)[C@H](Cc2c[nH]c3c(C)cccc23)NC(=O)[C@H]([C@@H](C)O)NC(=O)[C@H](CC(N)=O)NC(=O)[C@@H](NC(C)=O)C(C)(C)SSC(C)(C)[C@@H](C(=O)N[C@@H](Cc2ccc(OCCN)cc2)C(=O)N[C@@H](Cc2ccc3ccccc3c2)C(=O)NC2(C(=O)N[C@@H](CCC(=O)O)C(=O)N[C@@H](CC(N)=O)C(=O)N[C@@H](Cc3cccnc3)C(=O)N(C)CC(N)=O)CCOCC2)NC1=O	human alpha-1-acid glycoprotein 0.14%	equilibrium dialysis	–	0.01 µM	–	protein binding	7.56 ± 4.06%
CS(C)(=O)=Nc1ccc(-c2ccc(-c3nc4cc(O[C@@H]5CO[C@H]6[C@@H]5OC[C@H]6O)[nH]c4cc3F)cc2)cc1	EGFR (Homo sapiens, UniProt P00533, L861Q)	enzyme activity, inhibitor	–	10 µM	–	inhibition	-20%
C=CC(=O)Nc1cccc(Cn2ncc3cnc(Nc4cnn(CCOC)c4)nc32)c1	–	–	male Sprague-Dawley rat	oral, 180 mg/kg/day, day 28, 28-day subacute toxicity	–	serum LDL	0.14 ± 0.05 mM
CC(C)C[C@H](NC(=O)[C@H](Cc1ccc(O)cc1)NC(=O)CNC(=O)CNC(=O)CNC(=O)[C@H](Cc1c[nH]cn1)NC(=O)[C@H](Cc1c[nH]cn1)NC(=O)[C@@H](NC(=O)CNC(=O)[C@H](Cc1c[nH]cn1)NC(=O)[C@H](Cc1ccccc1)NC(=O)[C@H](CC(C)C)NC(=O)[C@H](CC(C)C)NC(=O)[C@H](CCCNC(=N)N)NC(=O)[C@H](Cc1ccccc1)NC(=O)[C@@H](N)Cc1ccccc1)C(C)C)C(=O)N[C@@H](CC(N)=O)C(=O)N[C@@H](C)C(=O)N[C@@H](C)C(N)=O	–	–	zebrafish embryos 28 hpf, E3 medium	24 h	–	chronic toxic concentration	25 µM
O=C1NC2(CC2)COc2ncc(F)cc2[C@H]2COCCN2c2ccn3ncc1c3n2	–	–	Sprague-Dawley rat, male, spleen	oral, 20 mg/kg/day, 4 weeks, end of treatment	–	organ-to-brain weight ratio	79.7 ± 17.4%
COC(=O)[C@H]1[C@@H](c2ccc(Cl)cc2)C[C@@H]2CC[C@H]1N2CCCc1ccc2cc3ccccc3cc2c1	–	fluorometric titration	–	1 µM, 10% DMSO	–	pKa	6.9
COc1ccccc1-c1n[nH]c2nc(NC3CCN(C(=O)Cc4ccc(F)cc4F)CC3)ncc12	–	bead binding, competition bead pull-down, measured: LINJ.35.3120	Leishmania donovani axenic amastigote extract	10 µM	reference: vehicle	relative abundance	0.95
CCN(CC)CCOc1ccc(-c2nnn(Cc3ccc(OC)cc3)c2N)cc1	–	–	rat liver microsomes	concentration not given, time not given	–	remaining compound	51.6%
CCCC[C@H]1C(=O)N(C)[C@@H](CCCC)C(=O)N[C@@H](CCCNC(=O)CN2CCN(CC(=O)O)CCN(CC(=O)O)CCN(CC(=O)O)CC2)C(=O)N[C@H](C(=O)NCC(N)=O)CSCC(=O)N[C@@H](Cc2ccc(O)cc2)C(=O)N(C)[C@@H](C)C(=O)N[C@@H](CC(N)=O)C(=O)N2CCC[C@H]2C(=O)N[C@@H](Cc2c[nH]cn2)C(=O)N[C@@H](CC(C)C)C(=O)N(C)CC(=O)N[C@@H](Cc2c[nH]c3ccccc23)C(=O)N[C@@H](CO)C(=O)N[C@@H](Cc2c[nH]c3ccccc23)C(=O)N1C [gallium-68 labelled]	–	–	NOD/SCID mice, CHO-hPD-L1 xenograft, tumour	10 min p.i.	–	tumour uptake	4.09 ± 0.76 %ID/g
Cc1cccc(-c2cccc(C)n2)n1.Cc1cccc(-c2cccc(C)n2)n1.F[P-](F)(F)(F)(F)F.F[P-](F)(F)(F)(F)F.[Ru+2].c1ccc2c(-c3nc4c5cccnc5c5ncccc5c4[nH]3)cccc2c1	–	–	aerated acetonitrile	298 K	reference: Ru(bpy)3(PF6)2	singlet oxygen quantum yield	0
NC1CCN(C(=O)Oc2ccc(C3CCCC4(C3)OOC3(O4)C4CC5CC(C4)CC3C5)cc2)CC1 (racemic)	–	–	male Sprague-Dawley rat, plasma	intravenous, 10 mg/kg	–	C0	2210 ng/mL
CC[C@H](C)[C@H](NC(=O)[C@H](CCCCN)NC(=O)CNC(=O)[C@H](CC(C)C)NC(=O)[C@H](Cc1ccccc1)NC(=O)[C@H](CCCCN)NC(=O)[C@H](CO)NC(=O)[C@H](Cc1ccccc1)NC(=O)[C@H](Cc1c[nH]c2ccccc12)NC(=O)[C@H](CCC(N)=O)NC(=O)[C@@H](NC(=O)[C@H](Cc1ccccc1)NC(=O)CCCCCNC(=O)CN1CCN(CC(=O)O)CCN(CC(=O)O)CCN(CC(=O)O)CC1)C(C)C)C(=O)N[C@@H](CCC(=O)O)C(=O)N1CCC[C@H]1C(=O)N[C@@H](CC(=O)O)C(=O)N[C@H](C(=O)N[C@@H](CO)C(=O)N[C@@H](CCC(N)=O)C(=O)N[C@H](C(=O)N[C@@H](CCC(N)=O)C(=O)N[C@@H](CC(=O)O)C(=O)N1CCC[C@H]1C(=O)N[C@@H](CC(N)=O)C(=O)N[C@@H](CC(=O)O)C(=O)N[C@@H](CCC(N)=O)C(=O)N[C@@H](Cc1ccc(O)cc1)C(=O)N[C@@H](CCC(=O)O)C(=O)N1CCC[C@H]1C(=O)N[C@@H](Cc1ccccc1)C(=O)O)C(C)C)C(C)C [copper-64 labelled]	–	–	C57BL/6 mice, male, tumour-free, brain	24 h	–	tissue uptake	0.43 ± 0.02 %ID/g
CCCCCCCCCCCCCCCC(=O)N[C@@H](CCC(=O)NCCCC[C@H](NC(=O)[C@H](CC(=O)O)NC(=O)[C@H](CO)NC(=O)[C@@H](NC(=O)[C@H](Cc1ccccc1)NC(=O)[C@@H](NC(=O)CNC(=O)[C@H](CCC(N)=O)NC(=O)[C@H](C)NC(=O)[C@@H](Cc1ccc(O)cc1)NC(C)=O)[C@@H](C)O)[C@@H](C)O)C(=O)N[C@@H](CO)C(=O)N[C@@H](CCCCN)C(=O)N[C@@H](Cc1ccc(O)cc1)C(=O)N[C@@H](CC(C)C)C(=O)N[C@@H](CC(=O)O)C(=O)N[C@@H](CCC(=O)O)C(=O)N[C@@H](CCCNC(=N)N)C(=O)N[C@@H](C)C(=O)N[C@@H](C)C(=O)N[C@@H](CCC(N)=O)C(=O)N[C@@H](CC(=O)O)C(=O)N[C@@H](Cc1ccccc1)C(=O)N[C@H](C(=O)N[C@@H](CCC(N)=O)C(=O)N[C@@H](Cc1c[nH]c2ccccc12)C(=O)N[C@@H](CC(C)C)C(=O)N[C@@H](CC(C)C)C(=O)N[C@@H](CCC(=O)O)C(=O)NCC(=O)NCC(=O)N1CCC[C@H]1C(=O)N[C@@H](CO)C(=O)N[C@@H](CO)C(=O)NCC(=O)N[C@@H](C)C(=O)N1CCC[C@H]1C(=O)N1CCC[C@H]1C(=O)N1CCC[C@H]1C(=O)N[C@@H](CO)C(N)=O)C(C)C)C(=O)O	–	–	cynomolgus monkey	subcutaneous, 0.0161 mg/kg	–	bioavailability	114%
CN1CCCCC1C(=O)NC(Cc1ccc(-c2ccccc2)cc1)B(O)O (centres unmarked)	–	–	male Sprague-Dawley rats, plasma	intravenous, 1 mg/kg, 24 h, citrate ester	–	AUC(0-t)	1.44 µM·h
N#[11C]c1ccc(-c2csc(NN=C3CCCC3)n2)cc1	–	–	C57BL/6 mice, male, pancreas	intravenous, 3 MBq, 60 min	–	radioactivity uptake	1.03 ± 0.35 %ID/g
COc1cnc2cccc(N3CCc4c(cc(Cn5ccnc5)cc4-c4cn(C)nc4C(F)(F)F)C3=O)c2c1	–	–	BALB/c nude mice, MV4-11 xenograft	intraperitoneal, 50 mg/kg, day 10	–	body weight	21.4 g and 24.3 g and 25.8 g and 23.4 g and 22.2 g and 22.8 g and 25.3 g and 23.7 g
Cn1nc(NS(C)(=O)=O)c2c(Cl)ccc(-n3c([C@H](Cc4cc(F)cc(F)c4)NC(=O)Cn4nc(C(F)F)c5c4C(F)(F)[C@@H]4C[C@H]54)nc4nc(OCCC(F)(F)F)ccc4c3=O)c21	–	–	human, plasma	oral, 625 mg single dose, powder in bottle, median	–	tmax	8 h
CSCC[C@H](N)C(=O)N[C@@H](C)C(=O)N[C@@H](Cc1c[nH]c2ccccc12)C(=O)N[C@@H](Cc1c[nH]cn1)C(=O)N[C@@H](CC(=O)O)C(=O)N[C@@H](CC(=O)O)C(=O)N[C@@H](CCC(=O)O)C(=O)N[C@@H](CCC(=O)O)C(=O)N[C@@H](Cc1ccccc1)C(=O)N[C@@H](C)C(=O)N[C@@H](CCCNC(=N)N)C(=O)N[C@@H](CCCNC(=N)N)C(=O)N[C@@H](CCCNC(=N)N)C(=O)N[C@@H](CCCNC(=N)N)C(=O)NCCCCCC(=O)NCCCCC(NC(=O)CCCCCNC(=O)[C@H](CCCNC(=N)N)NC(=O)[C@H](CCCNC(=N)N)NC(=O)[C@H](CCCNC(=N)N)NC(=O)[C@H](CCCNC(=N)N)NC(=O)[C@H](C)NC(=O)[C@H](Cc1ccccc1)NC(=O)[C@H](CCC(=O)O)NC(=O)[C@H](CCC(=O)O)NC(=O)[C@H](CC(=O)O)NC(=O)[C@H](CC(=O)O)NC(=O)[C@H](Cc1c[nH]cn1)NC(=O)[C@H](Cc1c[nH]c2ccccc12)NC(=O)[C@H](C)NC(=O)[C@@H](N)CCSC)C(=O)NCCCCC(NC(=O)C(CCCCNC(=O)CCCCCNC(=O)[C@H](CCCNC(=N)N)NC(=O)[C@H](CCCNC(=N)N)NC(=O)[C@H](CCCNC(=N)N)NC(=O)[C@H](CCCNC(=N)N)NC(=O)[C@H](C)NC(=O)[C@H](Cc1ccccc1)NC(=O)[C@H](CCC(=O)O)NC(=O)[C@H](CCC(=O)O)NC(=O)[C@H](CC(=O)O)NC(=O)[C@H](CC(=O)O)NC(=O)[C@H](Cc1c[nH]cn1)NC(=O)[C@H](Cc1c[nH]c2ccccc12)NC(=O)[C@H](C)NC(=O)[C@@H](N)CCSC)NC(=O)CCCCCNC(=O)[C@H](CCCNC(=N)N)NC(=O)[C@H](CCCNC(=N)N)NC(=O)[C@H](CCCNC(=N)N)NC(=O)[C@H](CCCNC(=N)N)NC(=O)[C@H](C)NC(=O)[C@H](Cc1ccccc1)NC(=O)[C@H](CCC(=O)O)NC(=O)[C@H](CCC(=O)O)NC(=O)[C@H](CC(=O)O)NC(=O)[C@H](CC(=O)O)NC(=O)[C@H](Cc1c[nH]cn1)NC(=O)[C@H](Cc1c[nH]c2ccccc12)NC(=O)[C@H](C)NC(=O)[C@@H](N)CCSC)C(N)=O (some centres unmarked)	–	–	C57BL/6 mouse female, ovary	dose not given, 6 h	reference: total	mean tissue distribution	0.31%
CC(CCC(=O)NCC(=O)O)C1CCC2C3C(O)CC4CC(OC5OC(C(=O)O)C(O)C(O)C5O)CCC4(C)C3CCC12C (centres unmarked)	–	–	human men	dose not given, SLCO1B1 *5/*35	–	plasma concentration	69 ng/mL

Excerpt of the above:
SMILES	target or system	test	test system	setting	scale	endpoint	result
N#[11C]c1ccc(-c2csc(NN=C3CCCC3)n2)cc1	–	–	C57BL/6 mice, male, pancreas	intravenous, 3 MBq, 60 min	–	radioactivity uptake	1.03 ± 0.35 %ID/g
COc1cnc2cccc(N3CCc4c(cc(Cn5ccnc5)cc4-c4cn(C)nc4C(F)(F)F)C3=O)c2c1	–	–	BALB/c nude mice, MV4-11 xenograft	intraperitoneal, 50 mg/kg, day 10	–	body weight	21.4 g and 24.3 g and 25.8 g and 23.4 g and 22.2 g and 22.8 g and 25.3 g and 23.7 g
